Results collected from several papers.
Every numbered part comes from another study and shows a few of its results, in no order. Values joined by “and” are separate records of one study, mostly repeats; a detail may differ.

Sample 1
Target: Calcium/calmodulin-dependent protein kinase type II subunit alpha (CAMK2A, Homo sapiens, UniProt Q9UQM7)
Chain of UniProt Q9UQM7 (whole entry, looked up): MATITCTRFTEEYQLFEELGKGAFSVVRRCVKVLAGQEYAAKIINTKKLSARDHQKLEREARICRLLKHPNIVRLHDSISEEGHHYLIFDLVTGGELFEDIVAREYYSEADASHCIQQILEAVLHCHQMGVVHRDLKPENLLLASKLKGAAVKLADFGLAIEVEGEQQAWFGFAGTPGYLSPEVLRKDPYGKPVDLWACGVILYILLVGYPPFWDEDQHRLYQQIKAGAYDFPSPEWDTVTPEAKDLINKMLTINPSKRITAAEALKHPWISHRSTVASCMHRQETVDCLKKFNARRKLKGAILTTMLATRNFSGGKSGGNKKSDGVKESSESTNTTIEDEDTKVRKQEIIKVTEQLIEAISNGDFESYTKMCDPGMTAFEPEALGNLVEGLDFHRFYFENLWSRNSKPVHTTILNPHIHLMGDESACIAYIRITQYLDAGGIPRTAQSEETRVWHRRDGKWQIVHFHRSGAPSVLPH
Observed: enzyme activity
Action: inhibitor
Concentration: 10 µM
For O=c1[nH]cnc2c1ncn2[C@@H]1O[C@H](COP(=O)(O)OP(=O)(O)OP(=O)(O)O)[C@@H](O)[C@H]1O, the inhibition was -14%.
The inhibition of C[C@@H]1CC[C@]2(C(=O)O)CC[C@]3(C)C(=CC[C@@H]4[C@@]5(C)CC[C@H](O)[C@](C)(C(=O)O)[C@@H]5CC[C@]43C)[C@@H]2[C@]1(C)O is reported as -24%.
O=Cc1cccs1 has an inhibition of 28%.
The inhibition of C=CCc1ccc(O)c(-c2ccc(OC)c(CC=C)c2)c1 is reported as -22%.
With C[C@@H]1CC[C@@]2(OC1)O[C@H]1C[C@H]3[C@@H]4CC=C5C[C@@H](O[C@@H]6O[C@H](CO)[C@@H](O)[C@H](O)[C@H]6O[C@@H]6O[C@@H](C)[C@H](O)[C@@H](O)[C@H]6O)CC[C@]5(C)[C@H]4CC[C@]3(C)[C@@]1(O)[C@@H]2C the inhibition was -12%.
Nc1ncnc2c1ncn2[C@H]1C[C@H](O)[C@@H](COP(=O)(O)OP(=O)(O)OP(=O)(O)O)O1 has an inhibition of -48%.
The inhibition of COC(=O)Nc1ccc(C)c(NC(=O)OC)c1 is reported as 30%.
Cc1cc2ncc(C(=O)NCC(C)(C)NCC(=O)N3CCC[C@H]3C#N)cn2n1 gave an inhibition of -6%.
For CC(C)=CCCC(C)CCO (centres unmarked), the inhibition was 8%.
For C[C@H](CCC(=O)NCC(=O)O)[C@H]1CC[C@H]2[C@@H]3C[C@H](O)[C@@H]4C[C@H](O)CC[C@]4(C)[C@H]3CC[C@]12C, the inhibition was -8%.
CC1Cc2ccccc2N1NC(=O)c1ccc(Cl)c(S(N)(=O)=O)c1 (centres unmarked) has an inhibition of -2%.
NC(CCS)C(=O)O (racemic) gave an inhibition of 12%.

Sample 2
Target: Histamine H3 receptor (HRH3, Homo sapiens, UniProt Q9Y5N1)
Chain of UniProt Q9Y5N1 (whole entry, looked up): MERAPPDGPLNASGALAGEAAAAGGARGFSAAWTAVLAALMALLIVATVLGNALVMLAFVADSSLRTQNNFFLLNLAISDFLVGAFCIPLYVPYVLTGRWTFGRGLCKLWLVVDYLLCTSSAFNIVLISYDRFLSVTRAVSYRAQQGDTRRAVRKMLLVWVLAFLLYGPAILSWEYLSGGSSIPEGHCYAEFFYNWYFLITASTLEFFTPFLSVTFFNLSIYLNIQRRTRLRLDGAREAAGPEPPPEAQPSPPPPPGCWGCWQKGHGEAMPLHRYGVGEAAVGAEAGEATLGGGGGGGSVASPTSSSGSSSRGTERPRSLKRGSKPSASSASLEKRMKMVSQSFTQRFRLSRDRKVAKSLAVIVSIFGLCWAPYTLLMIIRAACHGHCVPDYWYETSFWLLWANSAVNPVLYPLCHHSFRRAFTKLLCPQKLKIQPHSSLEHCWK
Observed: binding
Technique: radioligand binding
Concentration: 10 µM
COc1cc(-c2cn(C3CCc4ccccc4N(CC(F)(F)F)C3=O)nn2)ccc1-n1ccc(C)n1 (centres unmarked) gave an inhibition of 20.9%.
CC(C)CC(=O)N1CCc2nc(-c3ccc(Br)cc3)nc(N(C)Cc3ccccc3)c2C1 gave an inhibition of 18.3%.
The inhibition of CNC(=O)c1ccc(Nc2ncc(C(F)(F)F)c(NCc3nccnc3N(C)S(C)(=O)=O)n2)cc1 is reported as -7.94%.
The inhibition of Cc1c(NC(=O)c2cc(C(N)=O)nc3cc(F)ccc23)c(C(F)(F)F)nn1Cc1ccc(C(C)(C)C)cc1 is reported as -11.8%.
O=C1c2ccc(Nc3ccc(F)cc3F)cc2CCc2ccc(OC[C@H](O)CO)cc21 has an inhibition of 10.9%.
For CS(=O)(=O)NCC[C@H](NC(=O)c1cncc2c1cnn2-c1ccc(F)cc1)c1ccnc(S(C)(=O)=O)c1, the inhibition was 18.9%.
The inhibition of CC(=O)c1c(NS(C)(=O)=O)c2cc(-c3ccc(Cl)cc3)c(-c3ccc(Cl)cc3Cl)nc2n(C)c1=O is reported as 0.553%.
For Cc1c[nH]c2nccc(Oc3c(F)cc(Nc4cc(Cl)nc(N)n4)cc3F)c12, the inhibition was 8.13%.
With CC(=O)N1CCC(c2ccc(C(=O)NC(=N)N)cc2C(F)(F)F)CC1 the inhibition was -6.54%.
CCCOc1ccc([C@H]2[C@H](C(=O)O)[C@@H](c3ccc4c(c3)OCO4)CN2CC(=O)Nc2c(CC)cccc2CC)cc1 gave an inhibition of -16.7%.
For Nc1c(C(=O)NCc2ccc(C(=O)NCCCC3CCCCC3)cc2)cnn1-c1ccccc1, the inhibition was -2.98%.
COCc1nc2cnc3cc(-c4c(C)noc4C)c(OC[C@H]4CCNC4)cc3c2n1[C@H](C)c1ccccc1 has an inhibition of -5.03%.
CN(C)C(=O)Cn1cc(-c2nc([C@@](C)(c3ccc(-c4cnc(N)nc4)cc3)C3CC3)no2)cn1 gave an inhibition of 11%.
The inhibition of C[C@H](NC(=O)c1cnc2n1[C@](C)(Cc1ccc(C#N)cc1)C(=O)N2c1cc(Cl)c(F)c(Cl)c1)C(=O)NC1(c2ccccn2)CC1 is reported as 1.43%.
CNC(=O)Nc1ccc2c(c1)[C@]1(CC2)OC(=O)N(CC(=O)N(Cc2ccc(F)cc2)[C@@H](C)C(F)(F)F)C1=O has an inhibition of 13.2%.
For Cc1cc(-n2nc(Cc3cc(F)cc(C(F)(F)F)c3)nc2C)ccc1C(N)=O, the inhibition was 11.4%.
COCCc1ccc(-c2c(C)nc3c(N4CCOCC4)ccnn23)cn1 gave an inhibition of 3.7%.
For O=C(Nc1ccc(-n2nc(-c3cccnc3)cc2C(F)(F)F)cn1)c1ccc(-c2ccccc2)c(F)c1, the inhibition was -1.54%.
The inhibition of O=C1CCc2cc(Nc3cc(OC4CCOCC4)c([N+](=O)[O-])cc3Cl)ccc2N1 is reported as 15.1%.
With O=C(O)c1cc(-c2ccc(C3CCNCC3)cc2)c2ccc(-c3ccc(C(F)(F)F)cc3)cc2c1 the inhibition was 0.03%.
CC1=C(C#N)C(c2ccc3c(c2)c(NC(=O)c2ccccc2C)nn3C)C(C#N)=C(C)N1 gave an inhibition of 1.89%.
With CC(=O)Nc1c(F)cc(C(=O)N[C@H]2CC[C@H](O)CC2)cc1O[C@@H](C)c1ccccc1 the inhibition was -15%.
Cc1nccc(COC(=O)N2C[C@@H]3[C@@H](CNC(=O)c4ccc5[nH]nnc5c4)[C@@H]3C2)n1 has an inhibition of 9.03%.
The inhibition of CN1CCN(C(=O)C(C)(C)c2ccc(C(=O)Nc3cn4cc(-c5ccncc5)ccc4n3)cc2)CC1 is reported as 16.6%.
CC(=O)Nc1nc(CN2CCC[C@H](Cc3cc(C)nc(C)c3)C2)cs1 has an inhibition of 27.1%.

Sample 3
Structure (SMILES): CC(=O)N[C@@H](Cc1c[nH]c2ccccc12)C(=O)N[C@@H](CCC(=O)C=[N+]=[N-])C(=O)OC(C)C
Host: C57BL/6 CES1-/- mice, EL4 tumour
Route: subcutaneous
Dose: 0.3 mg/kg/day DON equivalent
Time: 5 days
It gave 1.57e+06 a.u. and 1.91e+06 a.u. and 1.74e+06 a.u. and 1.85e+06 a.u. and 971000 a.u. and 1.79e+06 a.u. for “metabolite peak intensity” (UPLC-MS/MS metabolomics, measured: gamma-glutamylleucine; EL4 tumour; normalised to tissue mass).
The “metabolite peak intensity” was 322000 a.u. and 379000 a.u. and 246000 a.u. and 154000 a.u. (UPLC-MS/MS, measured: homocysteine; EL4, tumour; normalised to tissue mass; higher = more metabolite).
UPLC-MS/MS metabolomics, measured: gamma-glutamylthreonine; EL4 tumour; normalised to tissue mass — “metabolite peak intensity”: 961000 a.u. and 665000 a.u. and 1.13e+06 a.u. and 1.24e+06 a.u. and 1.03e+06 a.u.
The “metabolite peak intensity” was 1.84e+06 a.u. and 3.9e+06 a.u. and 3.03e+06 a.u. and 1.46e+06 a.u. and 3.16e+06 a.u. and 2.9e+06 a.u. (UPLC-MS/MS metabolomics, measured: N-methyl-GABA; EL4 tumour; normalised to tissue mass; higher = more metabolite).
UPLC-MS/MS metabolomics, measured: oxidised glutathione (GSSG); EL4 tumour; normalised to tissue mass — “metabolite peak intensity”: 5.51e+07 a.u. and 3.59e+07 a.u. and 5.33e+07 a.u. and 3.6e+07 a.u. and 6.32e+07 a.u. and 6.12e+07 a.u.
UPLC-MS/MS, measured: hydroxy-N6,N6,N6-trimethyllysine; EL4, tumour; normalised to tissue mass; higher = more metabolite — “metabolite peak intensity”: 1.41e+06 a.u. and 1.48e+06 a.u. and 1.4e+06 a.u. and 1.07e+06 a.u. and 1.51e+06 a.u. and 1.19e+06 a.u.
The “metabolite peak intensity” was 3.45e+09 a.u. and 2.87e+09 a.u. and 2.36e+09 a.u. and 2.95e+09 a.u. and 4.27e+09 a.u. and 3.23e+09 a.u. (UPLC-MS/MS, measured: lactate; EL4, tumour; normalised to tissue mass; higher = more metabolite).
LC-MS/MS metabolomics, measured: pantoate; EL4 tumour; higher = more metabolite — “metabolite peak intensity”: 1.61e+06 a.u. and 2.55e+06 a.u. and 3.56e+06 a.u. and 1.38e+06 a.u. and 4.68e+06 a.u. and 721000 a.u.
It gave 3.66e+06 a.u. and 5.36e+06 a.u. and 5.02e+06 a.u. and 4.71e+06 a.u. and 5.07e+06 a.u. and 4.92e+06 a.u. for “metabolite peak intensity” (UPLC-MS/MS metabolomics, measured: gamma-glutamylglutamine; EL4 tumour; normalised to tissue mass).
It gave 6.27e+07 a.u. and 3.82e+07 a.u. and 3.74e+07 a.u. and 5.7e+07 a.u. and 5.24e+07 a.u. and 5.73e+07 a.u. for “metabolite peak intensity” (LC-MS/MS metabolomics, measured: prolylglycine; EL4 tumour; higher = more metabolite).

Sample 4
Target: Focal adhesion kinase 1 (PTK2, Homo sapiens, UniProt Q05397)
Chain of UniProt Q05397 (whole entry, looked up): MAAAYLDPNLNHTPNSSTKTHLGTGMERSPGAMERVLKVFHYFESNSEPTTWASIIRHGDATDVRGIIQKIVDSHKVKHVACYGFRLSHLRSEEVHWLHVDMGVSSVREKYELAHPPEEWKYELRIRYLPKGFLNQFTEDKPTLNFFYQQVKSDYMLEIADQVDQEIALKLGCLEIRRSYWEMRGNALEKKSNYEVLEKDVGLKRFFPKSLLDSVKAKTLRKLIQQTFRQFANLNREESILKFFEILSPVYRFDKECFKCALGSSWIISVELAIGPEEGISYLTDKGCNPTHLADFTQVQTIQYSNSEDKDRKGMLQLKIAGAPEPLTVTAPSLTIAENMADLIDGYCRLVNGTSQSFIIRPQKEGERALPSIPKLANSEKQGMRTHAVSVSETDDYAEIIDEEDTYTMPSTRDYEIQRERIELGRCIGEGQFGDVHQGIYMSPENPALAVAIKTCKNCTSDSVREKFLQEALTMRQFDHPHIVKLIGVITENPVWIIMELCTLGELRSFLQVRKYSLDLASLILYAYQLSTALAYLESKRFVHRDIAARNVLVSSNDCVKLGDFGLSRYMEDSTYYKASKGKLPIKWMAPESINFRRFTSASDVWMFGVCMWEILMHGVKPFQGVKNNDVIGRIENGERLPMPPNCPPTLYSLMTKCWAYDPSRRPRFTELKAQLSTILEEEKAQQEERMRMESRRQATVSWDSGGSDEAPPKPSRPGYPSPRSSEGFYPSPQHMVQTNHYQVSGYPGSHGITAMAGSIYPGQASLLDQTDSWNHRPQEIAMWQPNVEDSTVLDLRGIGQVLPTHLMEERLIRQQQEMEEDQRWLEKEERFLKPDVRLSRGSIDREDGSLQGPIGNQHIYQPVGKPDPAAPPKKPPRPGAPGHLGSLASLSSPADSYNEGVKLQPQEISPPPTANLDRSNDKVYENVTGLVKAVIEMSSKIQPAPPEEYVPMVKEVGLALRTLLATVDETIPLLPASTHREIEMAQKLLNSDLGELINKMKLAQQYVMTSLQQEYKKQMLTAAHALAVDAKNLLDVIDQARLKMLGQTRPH
Observed: enzyme activity
Action: inhibitor
Concentration: 0.5 µM
Reference: control
The remaining activity of Nc1ncnc2c1cnn2-c1ccccc1 is reported as 94.9%.
Nc1nccc(-c2c(-c3ccc(F)cc3)ncn2C2CCNCC2)n1 has a remaining activity of 94.1%.
CC#CC(=O)Nc1cc2c(Nc3ccc(F)c(Cl)c3)ncnc2cn1 gave a remaining activity of 102%.
CCc1[nH]c(-c2ccc(OC)cc2)nc1-c1ccncc1 gave a remaining activity of 101%.
With CC(=O)c1ccc(N2CCOCC2)cc1O the remaining activity was 107%.
For CC[n+]1c(/C=C/N(C)c2ccccc2)n(-c2ccccc2)c2ccc(-c3nc4ccccc4s3)cc21, the remaining activity was 108%.
N#CC(=C(N)Sc1ccc(N)cc1)c1ccccc1C(F)(F)F has a remaining activity of 101%.
For O=C1Cc2c([nH]c3ccc([N+](=O)[O-])cc23)-c2ccccc2N1, the remaining activity was 88.1%.
With NC(=O)c1ccc(N(C(N)=O)c2c(F)cccc2F)nc1-c1ccc(F)cc1F the remaining activity was 98.9%.
With O=C1NC(=O)C(c2c[nH]c3ccccc23)=C1c1c[nH]c2ccccc12 the remaining activity was 101%.
For CC(C)(C)n1nc(Cc2cccc3ccccc23)c2c(N)ncnc21, the remaining activity was 96.3%.
The remaining activity of CCCC(=O)Oc1ccc2[nH]c(C(=O)c3cc4ccccc4[nH]3)cc2c1 is reported as 94.1%.
For Fc1ccc(-c2nc3n(c2-c2ccncc2)CCS3)cc1, the remaining activity was 102%.
Cc1cncc2cccc(S(=O)(=O)N3CCCN(C(=O)CN)C[C@@H]3C)c12 has a remaining activity of 78%.
CSc1nc(-c2ccnc(N[C@@H](C)c3ccccc3)c2)c(-c2ccc(F)cc2)[nH]1 (racemic) has a remaining activity of 99.1%.
With Cc1cc(Nc2nc(-c3ccccc3)nc3ccccc23)n[nH]1 the remaining activity was 59.9%.
The remaining activity of Cc1ccc(NC2=CC(=O)c3sc(C)nc3C2=O)cc1 is reported as 102%.
COc1ccc(S(=O)(=O)N(CCO)c2ccccc2CN(C)CC=Cc2ccc(Cl)cc2)cc1 gave a remaining activity of 104%.
The remaining activity of O=S(=O)(NCCNC/C=C/c1ccc(Br)cc1)c1cccc2cnccc12 is reported as 64.1%.
Oc1ccc(Nc2nc(-c3ccc(Cl)cc3)cs2)cc1 gave a remaining activity of 99.4%.
For COc1cc(Nc2c(C#N)cnc3cc(OCCCN4CCN(C)CC4)c(OC)cc23)c(Cl)cc1Cl, the remaining activity was 96%.

Excerpt of the above (sample 2):
O=C1c2ccc(Nc3ccc(F)cc3F)cc2CCc2ccc(OC[C@H](O)CO)cc21 has an inhibition of 10.9%.
For CS(=O)(=O)NCC[C@H](NC(=O)c1cncc2c1cnn2-c1ccc(F)cc1)c1ccnc(S(C)(=O)=O)c1, the inhibition was 18.9%.
The inhibition of CC(=O)c1c(NS(C)(=O)=O)c2cc(-c3ccc(Cl)cc3)c(-c3ccc(Cl)cc3Cl)nc2n(C)c1=O is reported as 0.553%.
For Cc1c[nH]c2nccc(Oc3c(F)cc(Nc4cc(Cl)nc(N)n4)cc3F)c12, the inhibition was 8.13%.
With CC(=O)N1CCC(c2ccc(C(=O)NC(=N)N)cc2C(F)(F)F)CC1 the inhibition was -6.54%.
CCCOc1ccc([C@H]2[C@H](C(=O)O)[C@@H](c3ccc4c(c3)OCO4)CN2CC(=O)Nc2c(CC)cccc2CC)cc1 gave an inhibition of -16.7%.
For Nc1c(C(=O)NCc2ccc(C(=O)NCCCC3CCCCC3)cc2)cnn1-c1ccccc1, the inhibition was -2.98%.
COCc1nc2cnc3cc(-c4c(C)noc4C)c(OC[C@H]4CCNC4)cc3c2n1[C@H](C)c1ccccc1 has an inhibition of -5.03%.
CN(C)C(=O)Cn1cc(-c2nc([C@@](C)(c3ccc(-c4cnc(N)nc4)cc3)C3CC3)no2)cn1 gave an inhibition of 11%.
The inhibition of C[C@H](NC(=O)c1cnc2n1[C@](C)(Cc1ccc(C#N)cc1)C(=O)N2c1cc(Cl)c(F)c(Cl)c1)C(=O)NC1(c2ccccn2)CC1 is reported as 1.43%.
CNC(=O)Nc1ccc2c(c1)[C@]1(CC2)OC(=O)N(CC(=O)N(Cc2ccc(F)cc2)[C@@H](C)C(F)(F)F)C1=O has an inhibition of 13.2%.
